Results pooled from the literature.
± marks the error that the study gave.
G-protein coupled receptor 39: G-protein coupled receptor 39 (Mus musculus, UniProt Q5U431)
MC4R: Melanocortin receptor 4 (MC4R, Homo sapiens, UniProt P32245)
Voltage-gated sodium channel: Voltage-gated sodium channel (Musca domestica, UniProt Q25439)

COc1ccccc1-c1n[nH]c2nc(N[C@H]3CC[C@H](NS(=O)(=O)CC(C)C)CC3)ncc12 — relative abundance (bead binding, competition bead pull-down, measured: LINJ.23.0310; Leishmania donovani extract; 10 µM; relative to: vehicle): 1.39
O=C(O)CCn1c(=O)oc2cc(Cl)c(Cl)cc21 — EC50 (Alpha-2C adrenergic receptor (ADRA2C, Homo sapiens, UniProt P18825); agonist): > 100000 nM
CC(CCC(=O)NCC(=O)O)C1CCC2C3CCC4CC(O)CCC4(C)C3CCC12C (stereo not drawn) — EC50 (G-protein coupled receptor 39; calcium signal, agonist, fluorescence): > 200000 nM
CCCC[C@H](NC(C)=O)C(=O)N[C@H]1CCC(=O)NCCC[C@@H](C(=O)N[C@@H](C(=O)N2CCC[C@@H]2C(N)=O)C(C)C)NC(=O)[C@H](Cc2c[nH]c3ccccc23)NC(=O)[C@H](CCCNC(=N)N)NC(=O)[C@@H](Cc2ccc(F)cc2)NC(=O)[C@@H]2CCCN2C1=O — EC50 (MC4R; cAMP, agonist): 0.36 nM
CS(C)(=O)=Nc1ccc(-c2ccc(-c3nc4cc(O[C@@H]5CO[C@H]6[C@@H]5OC[C@H]6O)[nH]c4cc3F)cc2)cc1 — inhibition (Homeodomain-interacting protein kinase 1 (HIPK1, Homo sapiens, UniProt Q86Z02); enzyme activity, inhibitor; 10 µM): 11%
CCOC(=O)C(CC)(CC)NC(=O)c1ccc(C2CC2)c(Cc2ccc(F)cc2)n1 — EC50 (Cannabinoid receptor 2 (Cnr2, Mus musculus, UniProt P47936); cAMP, agonist): 1.9 nM
CC(C)[C@H]1NC(=O)C[C@H]2/C=C/CCSSC[C@@H](NC1=O)C(=O)N[C@H](Cc1cccc3ccccc13)C(=O)NCC(=O)O2 — inhibition (Dual specificity tyrosine-phosphorylation-regulated kinase 2 (DYRK2, Homo sapiens, UniProt Q92630); enzyme activity, inhibitor; 10 µM): 1.7%
CC(CCC(=O)NCCS(=O)(=O)O)C1CCC2C3C(O)CC4CC(OS(=O)(=O)O)CCC4(C)C3CC(O)C12C (stereo not drawn) — EC50 (G-protein coupled receptor 39; calcium signal, agonist, fluorescence): > 200000 nM
O=C1NC(=O)c2c1c1cc(F)c[n+]3c1c1c2c2cc(O)ccc2[n]1[Ru-4]312([N]=C=S)[S+]3CC[S+]1CC[S+]2CC3 (stereo not drawn) — remaining activity (Serine/threonine-protein kinase WNK3 (WNK3, Homo sapiens, UniProt Q9BYP7); enzyme activity; 100 nM, human enzyme, together with: 10 µM ATP; relative to: untreated): 95%
CCCCC/C=C\C/C=C\C/C=C\C/C=C\CCCC(=O)NCCc1ccc(O)c(O)c1 — EC50 (Transient receptor potential cation channel subfamily V member 1 (Trpv1, Mus musculus, UniProt Q704Y3, E571A); ion current, agonist, whole-cell patch clamp; +80 mV, about 24 °C): 220 ± 50 nM
CC[C@H](C)[C@H](NC(=O)[C@H](Cc1ccccc1)NC(=O)[C@H](CCC(=O)O)NC(=O)[C@H](CCCNC(=N)N)NC(=O)[C@@H](NC(=O)[C@H](C)NC(=O)[C@H](CCC(=O)O)NC(=O)[C@H](CCC(=O)O)NC(=O)[C@H](CCC(=O)O)NC(=O)[C@H](CC(C)C)NC(=O)[C@H](Cc1ccc(O)cc1)NC(=O)[C@H](CCCCN)NC(=O)[C@H](CO)NC(=O)[C@H](CC(C)C)NC(=O)[C@H](CC(=O)O)NC(=O)[C@H](CO)NC(=O)[C@@H](NC(=O)[C@H](Cc1ccccc1)NC(=O)[C@@H](NC(=O)CNC(=O)[C@H](CCC(N)=O)NC(=O)[C@@H](CO)NC(=O)[C@@H](N)Cc1c[nH]cn1)[C@@H](C)O)[C@@H](C)O)C(C)C)C(=O)N[C@@H](C)C(=O)N[C@@H](Cc1c[nH]c2ccccc12)C(=O)N[C@@H](CC(C)C)C(=O)N[C@@H](CCCCN)C(=O)N[C@@H](CC(N)=O)C(=O)NCC(=O)NCC(=O)N1CCC[C@H]1C(=O)N[C@@H](CO)C(=O)N[C@@H](Cc1ccc(O)cc1)C(=O)N[C@@H](CO)C(=O)N[C@@H](CCSC)C(=O)N[C@@H](CCC(=O)O)C(=O)N[C@@H](Cc1c[nH]cn1)C(=O)N[C@@H](Cc1ccccc1)C(=O)N[C@@H](CCCNC(=N)N)C(=O)N[C@@H](Cc1c[nH]c2ccccc12)C(=O)NCC(=O)N[C@@H](CCCCN)C(=O)N1CCC[C@H]1C(=O)N[C@H](C(N)=O)C(C)C — EC50 (MC4R; cAMP, agonist): 636 nM
CC1(C)C(C=C(Cl)Cl)C1C(=O)OCc1c(F)ccc(F)c1F (stereo not drawn) — EC50 (Voltage-gated sodium channel; membrane potential, activator, FLIPR; HEK293 expressing house fly VGSC): 4890 nM
Cc1cc(O)cc(C)c1C[C@H](N)C(=O)N[C@H](CCCNC(=N)N)C(=O)N[C@@H](Cc1ccccc1)C(=O)N(C)CC(=O)N(C)Cc1cc(C(F)(F)F)cc(C(F)(F)F)c1 — EC50 (Delta-type opioid receptor (OPRD1, Homo sapiens, UniProt P41143, Y129F); agonist): 3.38 ± 1.81 nM
Cc1ccc(C)c(OCCn2cc(C(=O)O)c3ccccc32)c1 — EC50 (Cell division control protein 42 homolog (CDC42, Homo sapiens, UniProt P60953); GTP binding, flow cytometry bead; EDTA buffer, together with: 100 nM BODIPY-GTP): 589 nM
CC(C)[C@H](NC(=O)[C@@H]1CSSC(C)(C)[C@H](NC(=O)[C@@H](N)CC(=O)O)C(=O)N[C@@H](Cc2ccccc2)C(=O)N[C@@H](Cc2c[nH]c3ccccc23)C(=O)N[C@@H](CCCCN)C(=O)N[C@@H](Cc2ccc(O)cc2)C(=O)N1)C(=O)O — EC50 (Urotensin-2 receptor (UTS2R, Homo sapiens, UniProt Q9UKP6, F271A); IP1 accumulation, agonist, HTRF; HEK293T; 1 h, 37 °C, F271A mutant, 6.48): 3.98 nM
CCN(Cc1ccccc1)C(=O)CCc1nc(CN2CCN(C(=O)Cc3ccc(OC)c(OC)c3)CC2)no1 — EC50 (Potassium voltage-gated channel subfamily KQT member 5 (KCNQ5, Homo sapiens, UniProt Q9NR82); activation V1/2 shift, activator, whole-cell patch clamp; transfected cells, KV7.5 current): 760 ± 100 nM
CC1(C)C(C=C(Cl)Cl)C1C(=O)OCc1ccccc1 (stereo not drawn) — EC50 (Voltage-gated sodium channel; membrane potential, activator, FLIPR; HEK293 expressing house fly VGSC; extrapolated): > 50000 nM
CN(C)[C@H]1C[C@@]23CC[C@@]4(O2)C(=CC[C@]2(C)[C@@H](c5ccc6ccncc6c5)CC[C@H]24)C=C3[C@@H](O)[C@@H]1O — inhibition (SNF-related serine/threonine-protein kinase (SNRK, Homo sapiens, UniProt Q9NRH2); ATP probe labelling, inhibitor, KiNativ profiling; 0.1 µM): 2%
COC1C2(O)C(=O)N3C=CC(C)(C)c4[nH]c5ccccc5c4C=C3C(=O)N2C23C(C)C(C)(C)N2c2ccccc2C13O (stereo not drawn) — EC50 (uncharacterized protein (Ixodes scapularis, UniProt A0A0N9E2I2); ion current, agonist, two-electrode voltage clamp; Xenopus oocytes; holding potential -100 mV; relative to: 1 mM L-glutamate response): 3720 nM
O=C1NC2(CC2)COc2ncc(F)cc2[C@H]2COCCN2c2ccn3ncc1c3n2 — serum total protein (Sprague-Dawley rat, male, serum; oral, 10 mg/kg/day, end of treatment, 4-week subacute toxicity): 57.7 ± 3.5 g/L
CC(C)(C)C(=O)OCOP(=O)(OCOC(=O)C(C)(C)C)C1CCCN(O)C1=O (stereo not drawn) — log LC50 (SK-MEL-28): -5.2 log M
CC1(C)C(C=C(Cl)Cl)C1C(=O)OCc1ccc(F)cc1 (stereo not drawn) — EC50 (Voltage-gated sodium channel; membrane potential, activator, FLIPR; HEK293 expressing house fly VGSC; extrapolated): > 50000 nM
COc1ccccc1-c1n[nH]c2nc(NC3CCN(C(=O)Cc4ccc(F)cc4F)CC3)ncc12 — relative abundance (bead binding, competition bead pull-down, measured: LINJ.26.2000; Leishmania donovani extract; 10 µM; relative to: vehicle): 0.98
C=CC(=O)N1[C@H](c2ccc3c(c2)OCO3)c2[nH]c3ccccc3c2C[C@H]1C(=O)N1CCOCC1 — EC50 (Hepatocyte nuclear factor 3-alpha (FOXA1, Homo sapiens, UniProt P55317); DNA binding enhancement, activator, NanoBRET): 12000 nM

A few entries again:
CC(C)[C@H](NC(=O)[C@@H]1CSSC(C)(C)[C@H](NC(=O)[C@@H](N)CC(=O)O)C(=O)N[C@@H](Cc2ccccc2)C(=O)N[C@@H](Cc2c[nH]c3ccccc23)C(=O)N[C@@H](CCCCN)C(=O)N[C@@H](Cc2ccc(O)cc2)C(=O)N1)C(=O)O — EC50 (Urotensin-2 receptor (UTS2R, Homo sapiens, UniProt Q9UKP6, F271A); IP1 accumulation, agonist, HTRF; HEK293T; 1 h, 37 °C, F271A mutant, 6.48): 3.98 nM
CCN(Cc1ccccc1)C(=O)CCc1nc(CN2CCN(C(=O)Cc3ccc(OC)c(OC)c3)CC2)no1 — EC50 (Potassium voltage-gated channel subfamily KQT member 5 (KCNQ5, Homo sapiens, UniProt Q9NR82); activation V1/2 shift, activator, whole-cell patch clamp; transfected cells, KV7.5 current): 760 ± 100 nM
